# Measurements of several laboratories.
# Every numbered part comes from another study and shows a few of its results, in no order.
# Sequence of UniProt P06239 (whole entry, looked up): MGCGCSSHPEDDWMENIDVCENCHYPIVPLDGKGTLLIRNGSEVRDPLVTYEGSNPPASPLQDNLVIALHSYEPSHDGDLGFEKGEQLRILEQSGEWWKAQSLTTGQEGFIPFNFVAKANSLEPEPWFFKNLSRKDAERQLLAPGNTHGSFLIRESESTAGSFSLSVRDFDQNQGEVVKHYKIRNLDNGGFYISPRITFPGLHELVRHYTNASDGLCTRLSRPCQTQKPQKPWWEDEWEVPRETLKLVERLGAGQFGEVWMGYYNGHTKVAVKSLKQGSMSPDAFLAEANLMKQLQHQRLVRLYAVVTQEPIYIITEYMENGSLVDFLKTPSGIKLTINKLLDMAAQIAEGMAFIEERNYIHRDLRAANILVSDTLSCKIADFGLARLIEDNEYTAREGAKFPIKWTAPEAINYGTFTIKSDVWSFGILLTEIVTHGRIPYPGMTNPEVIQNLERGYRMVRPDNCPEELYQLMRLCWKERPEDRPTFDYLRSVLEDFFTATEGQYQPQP
# Sequence of UniProt Q04912 (whole entry, looked up): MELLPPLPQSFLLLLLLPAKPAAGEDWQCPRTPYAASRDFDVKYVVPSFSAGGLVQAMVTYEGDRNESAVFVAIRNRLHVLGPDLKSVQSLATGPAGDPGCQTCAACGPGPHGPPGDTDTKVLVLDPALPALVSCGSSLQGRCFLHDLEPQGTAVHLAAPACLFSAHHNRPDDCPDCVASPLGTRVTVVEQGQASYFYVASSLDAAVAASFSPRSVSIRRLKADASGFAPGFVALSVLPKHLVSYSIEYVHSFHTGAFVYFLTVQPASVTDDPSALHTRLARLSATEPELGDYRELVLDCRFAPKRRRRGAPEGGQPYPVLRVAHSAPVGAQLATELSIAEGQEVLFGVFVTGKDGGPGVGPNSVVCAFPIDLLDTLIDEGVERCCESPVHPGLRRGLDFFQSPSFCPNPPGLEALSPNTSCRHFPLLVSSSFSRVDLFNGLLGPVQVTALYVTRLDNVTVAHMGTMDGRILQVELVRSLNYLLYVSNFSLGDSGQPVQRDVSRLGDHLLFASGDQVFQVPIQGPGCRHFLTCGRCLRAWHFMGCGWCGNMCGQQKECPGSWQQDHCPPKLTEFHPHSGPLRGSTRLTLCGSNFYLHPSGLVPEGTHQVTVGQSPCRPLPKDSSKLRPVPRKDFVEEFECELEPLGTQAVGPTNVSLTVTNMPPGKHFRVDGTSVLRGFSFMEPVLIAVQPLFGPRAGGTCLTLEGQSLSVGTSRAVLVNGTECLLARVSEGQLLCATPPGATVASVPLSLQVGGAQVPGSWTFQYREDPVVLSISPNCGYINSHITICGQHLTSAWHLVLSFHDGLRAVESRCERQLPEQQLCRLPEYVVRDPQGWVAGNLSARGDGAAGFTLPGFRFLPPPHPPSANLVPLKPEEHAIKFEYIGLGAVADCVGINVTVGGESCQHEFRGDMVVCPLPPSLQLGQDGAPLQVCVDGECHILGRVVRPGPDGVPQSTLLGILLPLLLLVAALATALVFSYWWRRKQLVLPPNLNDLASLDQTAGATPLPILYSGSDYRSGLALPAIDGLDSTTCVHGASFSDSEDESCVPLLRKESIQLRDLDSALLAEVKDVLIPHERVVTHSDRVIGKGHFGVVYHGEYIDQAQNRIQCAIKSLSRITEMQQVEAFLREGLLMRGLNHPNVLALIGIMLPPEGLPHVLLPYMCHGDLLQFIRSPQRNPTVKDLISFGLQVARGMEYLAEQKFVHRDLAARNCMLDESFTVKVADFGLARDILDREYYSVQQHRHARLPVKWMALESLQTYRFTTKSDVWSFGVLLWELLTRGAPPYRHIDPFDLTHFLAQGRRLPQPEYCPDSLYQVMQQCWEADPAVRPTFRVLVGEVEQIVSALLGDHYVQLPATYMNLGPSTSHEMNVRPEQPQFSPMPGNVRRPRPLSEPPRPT
# Sequence of UniProt Q8WTQ7 (whole entry, looked up): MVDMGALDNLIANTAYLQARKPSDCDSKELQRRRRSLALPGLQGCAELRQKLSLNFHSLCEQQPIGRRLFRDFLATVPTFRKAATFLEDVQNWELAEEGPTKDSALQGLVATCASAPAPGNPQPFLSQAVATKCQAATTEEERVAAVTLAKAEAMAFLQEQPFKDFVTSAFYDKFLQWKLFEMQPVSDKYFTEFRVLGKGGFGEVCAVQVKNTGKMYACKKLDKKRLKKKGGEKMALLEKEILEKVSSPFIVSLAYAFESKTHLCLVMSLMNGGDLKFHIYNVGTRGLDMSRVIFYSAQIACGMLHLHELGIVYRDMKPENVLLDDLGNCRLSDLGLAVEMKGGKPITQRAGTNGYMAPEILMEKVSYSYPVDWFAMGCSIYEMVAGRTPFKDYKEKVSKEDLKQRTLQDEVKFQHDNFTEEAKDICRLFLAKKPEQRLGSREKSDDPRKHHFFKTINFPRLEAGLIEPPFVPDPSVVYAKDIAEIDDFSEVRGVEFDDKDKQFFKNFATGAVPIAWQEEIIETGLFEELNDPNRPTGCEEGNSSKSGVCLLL
# Sequence of UniProt P15735 (whole entry, looked up): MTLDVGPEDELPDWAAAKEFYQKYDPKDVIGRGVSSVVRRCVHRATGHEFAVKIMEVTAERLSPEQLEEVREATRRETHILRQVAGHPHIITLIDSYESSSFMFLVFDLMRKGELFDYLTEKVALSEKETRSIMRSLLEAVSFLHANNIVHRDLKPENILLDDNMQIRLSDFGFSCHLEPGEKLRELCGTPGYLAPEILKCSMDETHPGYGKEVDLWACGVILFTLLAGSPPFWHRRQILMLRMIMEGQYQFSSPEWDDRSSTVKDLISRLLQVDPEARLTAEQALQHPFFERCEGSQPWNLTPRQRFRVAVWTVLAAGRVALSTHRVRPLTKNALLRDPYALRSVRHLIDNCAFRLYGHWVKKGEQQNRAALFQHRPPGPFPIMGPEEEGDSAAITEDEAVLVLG
# Sequence of UniProt P78368 (whole entry, looked up): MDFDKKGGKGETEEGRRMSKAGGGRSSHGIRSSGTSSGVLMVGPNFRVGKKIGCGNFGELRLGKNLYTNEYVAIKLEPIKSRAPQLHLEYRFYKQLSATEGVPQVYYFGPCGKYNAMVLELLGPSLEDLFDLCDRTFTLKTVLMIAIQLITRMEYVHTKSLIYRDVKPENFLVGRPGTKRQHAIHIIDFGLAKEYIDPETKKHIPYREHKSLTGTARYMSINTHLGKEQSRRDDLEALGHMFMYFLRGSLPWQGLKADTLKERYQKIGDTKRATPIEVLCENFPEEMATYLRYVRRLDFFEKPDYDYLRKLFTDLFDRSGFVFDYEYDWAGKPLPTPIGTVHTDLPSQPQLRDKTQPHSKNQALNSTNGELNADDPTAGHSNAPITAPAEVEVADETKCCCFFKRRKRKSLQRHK
# Sequence of UniProt O14936 (whole entry, looked up): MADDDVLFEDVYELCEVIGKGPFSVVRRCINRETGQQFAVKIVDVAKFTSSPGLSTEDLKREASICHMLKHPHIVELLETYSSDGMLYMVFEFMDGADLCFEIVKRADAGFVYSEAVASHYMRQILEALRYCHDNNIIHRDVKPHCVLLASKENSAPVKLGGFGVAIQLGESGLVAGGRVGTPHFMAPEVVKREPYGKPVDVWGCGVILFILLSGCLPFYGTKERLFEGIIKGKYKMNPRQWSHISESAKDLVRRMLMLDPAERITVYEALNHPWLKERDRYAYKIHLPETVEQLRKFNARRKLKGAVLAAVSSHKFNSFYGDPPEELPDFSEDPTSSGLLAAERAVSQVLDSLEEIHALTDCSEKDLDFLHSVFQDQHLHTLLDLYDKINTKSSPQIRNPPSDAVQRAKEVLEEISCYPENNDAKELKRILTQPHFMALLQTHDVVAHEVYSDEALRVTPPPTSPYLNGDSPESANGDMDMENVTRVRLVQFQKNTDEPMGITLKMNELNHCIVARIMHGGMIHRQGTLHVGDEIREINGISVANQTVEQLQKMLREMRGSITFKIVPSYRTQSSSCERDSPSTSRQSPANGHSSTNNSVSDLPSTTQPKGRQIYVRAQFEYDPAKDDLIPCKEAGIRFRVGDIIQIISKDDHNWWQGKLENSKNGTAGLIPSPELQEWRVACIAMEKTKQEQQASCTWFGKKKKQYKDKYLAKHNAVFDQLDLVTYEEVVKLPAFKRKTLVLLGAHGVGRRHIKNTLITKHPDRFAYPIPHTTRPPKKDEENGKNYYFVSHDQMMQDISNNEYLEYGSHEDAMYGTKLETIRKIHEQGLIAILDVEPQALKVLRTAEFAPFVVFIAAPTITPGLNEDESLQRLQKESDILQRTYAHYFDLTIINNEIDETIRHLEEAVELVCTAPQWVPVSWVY
# Sequence of UniProt P49841 (whole entry, looked up): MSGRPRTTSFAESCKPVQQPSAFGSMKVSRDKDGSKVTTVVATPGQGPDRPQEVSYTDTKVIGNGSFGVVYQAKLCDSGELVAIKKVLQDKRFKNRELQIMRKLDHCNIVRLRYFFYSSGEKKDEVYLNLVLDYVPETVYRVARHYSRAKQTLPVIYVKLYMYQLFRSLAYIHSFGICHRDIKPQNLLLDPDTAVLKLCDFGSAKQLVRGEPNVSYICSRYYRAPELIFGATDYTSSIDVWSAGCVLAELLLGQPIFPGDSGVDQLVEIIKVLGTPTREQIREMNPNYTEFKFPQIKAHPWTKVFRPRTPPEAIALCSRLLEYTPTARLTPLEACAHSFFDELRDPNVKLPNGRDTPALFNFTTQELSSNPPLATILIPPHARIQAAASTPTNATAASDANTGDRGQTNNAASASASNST

# Sample 1
# Compound: CN(C(=O)c1ccccc1)c1cc(N(C)c2ccc3c(c2)CCc2ccc(C(=O)NCCN4CCOCC4)cc2C3=O)ccc1F
# Read-out: cell-free assay
# Technique: competition with immobilised ligand
# Tested at: 1 µM
target,remaining binding [%]
"MAP3K2 (Homo sapiens, UniProt Q9Y2U5)",92
"MAST1 (Homo sapiens, UniProt Q9Y2H9)",100
"TSSK3 (Homo sapiens, UniProt Q96PN8)",100
"MST1R (Homo sapiens, UniProt Q04912)",100
"CSK (Homo sapiens, UniProt P41240)",88
"CASK (Homo sapiens, UniProt O14936)",85
"TIE1 (Homo sapiens, UniProt P35590)",100
"PAK3 (Homo sapiens, UniProt O75914)",100
"GRK3 (Homo sapiens, UniProt P35626)",100
"PHKG2 (Homo sapiens, UniProt P15735)",89
"GRK7 (Homo sapiens, UniProt Q8WTQ7)",100
"ROS1 (Homo sapiens, UniProt P08922)",81
"Myosin-IIIb (MYO3B, Homo sapiens, UniProt Q8WXR4)",87
"CAMKK1 (Homo sapiens, UniProt Q8N5S9)",99
"Ribosomal protein S6 kinase alpha-5, N-terminal kinase domain (RPS6KA5, Homo sapiens, UniProt O75582)",99
"NEK1 (Homo sapiens, UniProt Q96PY6)",45
"GRK4 (Homo sapiens, UniProt P32298)",100
"MAP3K13 (Homo sapiens, UniProt O43283)",100
"LCK (Homo sapiens, UniProt P06239)",100
"PIM3 (Homo sapiens, UniProt Q86V86)",91
"STK25 (Homo sapiens, UniProt O00506)",81
"EPHA6 (Homo sapiens, UniProt Q9UF33)",94
"Tyrosine-protein kinase JAK1, JH1 (JAK1, Homo sapiens, UniProt P23458)",100

# Sample 2
# Target: Interferon regulatory factor 3, full length, phosphomimetic (IRF3, Homo sapiens, UniProt Q14653, residues 1-427, S386D/S396D/S398D/S402D/T404D/S405D)
# Technique: protein-binding microarray
# Form: double-stranded DNA, one strand shown
# Sample: in vitro
# Tested at: 2540 nM top
# Setting: 60-bp whole probe
# Together with: salmon DNA 0.4 mg/ml
# Relative to: random background probes
# Reading: higher = stronger binding
# Constant ends, left off below: GCCTAGCAC … GTCTTGATTCGCTTGACGCTGCTG
# Target sequence (chain): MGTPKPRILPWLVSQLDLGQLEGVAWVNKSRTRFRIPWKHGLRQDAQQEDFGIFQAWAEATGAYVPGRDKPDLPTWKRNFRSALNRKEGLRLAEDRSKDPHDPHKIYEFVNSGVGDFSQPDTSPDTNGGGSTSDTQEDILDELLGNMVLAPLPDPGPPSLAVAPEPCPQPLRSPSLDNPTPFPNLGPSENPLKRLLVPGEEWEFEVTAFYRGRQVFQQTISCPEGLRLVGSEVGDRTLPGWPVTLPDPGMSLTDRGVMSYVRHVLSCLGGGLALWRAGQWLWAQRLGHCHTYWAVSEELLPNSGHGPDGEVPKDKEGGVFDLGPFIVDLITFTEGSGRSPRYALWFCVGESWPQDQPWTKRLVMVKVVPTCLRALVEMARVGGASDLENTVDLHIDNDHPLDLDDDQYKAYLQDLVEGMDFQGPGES
Sequence,fitted relative affinity [z-score]
TCATATATATATTGTTAGACTGTGCTA,0.419
AACTGTCTGCCTTTCAATCCGTGCTAG,0.483
GACGACATCAGACTGGAGACGTGCTAG,-0.329
TTAGATATCGGGTATTGATTAGTGCTA,-0.0296
TTAGGACTGCTACCGCTTTAGTGCTAG,-0.677
TTAGGACTGGGTAGCGGTTAGTGCTAG,-0.778
TTAGAAATCGGGTATCGATTAGTGCTA,0.0974
CTCATTCTCCACTTGTGTTTGTGCTAG,2.23

# Sample 3
# SMILES: Nc1[nH]nc2nnc(-c3c(-c4ccccc4)nn4ccccc34)cc12
# Read-out: enzyme activity
# Mode: inhibitor
# Tested at: 0.5 µM
# Relative to: control
target,remaining activity
"MAP3K14 (Homo sapiens, UniProt Q99558)",102%
"GSK3B (Homo sapiens, UniProt P49841)",109%
"NEK6 (Homo sapiens, UniProt Q9HC98)",95.6%
"RPS6KA2 (Homo sapiens, UniProt Q15349)",96.5%
"TBK1 (Homo sapiens, UniProt Q9UHD2)",100%
"ULK2 (Homo sapiens, UniProt Q8IYT8)",100%
"CSNK1G2 (Homo sapiens, UniProt P78368)",93.7%
"FRK (Homo sapiens, UniProt P42685)",101%
"LCK (Homo sapiens, UniProt P06239)",95.1%
"TAOK2 (Homo sapiens, UniProt Q9UL54)",101%
"EPHA3 (Homo sapiens, UniProt P29320)",97.8%
"WEE1 (Homo sapiens, UniProt P30291)",92.4%
"MAPKAPK2 (Homo sapiens, UniProt P49137)",105%
"MST1R (Homo sapiens, UniProt Q04912)",102%

# Sample 4
# Target: Prothrombin, mature alpha-thrombin (F2, Homo sapiens, UniProt P00734)
# Technique: aptamer microarray, sandwich
# Form: DNA with 2'F-ANA
# Sample: in vitro
# Tested at: 200 nM
# Setting: whole 15-mer aptamer, many near background
# Together with: Cy3 exosite-II aptamer, 400 nM
# Reading: higher = stronger binding
# Sequence: GGTTGGTGTGGTTGG
Modification,mean fluorescence intensity [a.u.]
2'F-ANA at 1 6 7 11 13 15,138
2'F-ANA at 2 5 8 9 11,66.8
2'F-ANA at 1 4 6 9 11,80.2
2'F-ANA at 1 2 3 8 9 10 11 13 15,77
2'F-ANA at 8 9 10 11 12 13,184
2'F-ANA at 1 2 5 7 14 15,49.2
2'F-ANA at 1 4 5 9 10 11 12 13 14 15,47.6
2'F-ANA at 3 5 8 10 12 13 14,56.9

# Some of these lines once more (sample 3):
target,remaining activity
"MST1R (Homo sapiens, UniProt Q04912)",102%
"MAP3K14 (Homo sapiens, UniProt Q99558)",102%
"LCK (Homo sapiens, UniProt P06239)",95.1%
"EPHA3 (Homo sapiens, UniProt P29320)",97.8%
"NEK6 (Homo sapiens, UniProt Q9HC98)",95.6%
"ULK2 (Homo sapiens, UniProt Q8IYT8)",100%
"MAPKAPK2 (Homo sapiens, UniProt P49137)",105%
"GSK3B (Homo sapiens, UniProt P49841)",109%
"CSNK1G2 (Homo sapiens, UniProt P78368)",93.7%
